Measurements collected from several papers.
Every numbered part comes from another study and shows a few of its results, in no order. Substitutions count along the parent as printed.

Series 1
Substance: PhoQ, residues 284 288 289 292 302 303 NLMGRA
Technique: Sort-seq
Item: YFP reporter
Matrix: E. coli
Setting: PhoQ-PhoP variant library
With: 10 µM Mg2+
Relative to: high Mg2+ state
Direction: higher = stronger signaling
target	fold induction
PhoP, residues 12 14 15 18 19 GMGLL (Escherichia coli, UniProt P23836)	12.1
PhoP, residues 12 14 15 18 19 LFHKL (Escherichia coli, UniProt P23836)	4.6
PhoP, residues 12 14 15 18 19 QQAYL (Escherichia coli, UniProt P23836)	17.4

Series 2
Target: Histone acetyltransferase KAT6A, winged helix 1, GST fusion (KAT6A, Homo sapiens, UniProt Q92794, residues 1-85)
Technique: protein binding microarray
Form: double-stranded DNA, one strand shown
Matrix: in vitro
Tested at: not given
Setting: 8-mer, flanks averaged, mean of 2 arrays, mostly near background
Relative to: not given
Direction: higher = stronger binding
Construct (chain): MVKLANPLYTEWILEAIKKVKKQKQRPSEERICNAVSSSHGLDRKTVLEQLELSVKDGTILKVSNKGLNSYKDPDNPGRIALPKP
Sequence	E-score
GCTTTAAC	0.0917
GTCAACTA	-0.208
GACTATGA	-0.15
AATCCAGT	-0.176
CTCGAGGC	-0.0501
GTTGCCGA	0.238
ATGGTCAA	-0.221
GCGTAACA	0.118
CATTGGCC	-0.135
GCGGAAGA	0.191
AAAGAGTA	-0.085
ACCATAGT	-0.0688
AAGAATGA	-0.238
TAAGAGCA	-0.297
AACTCATT	-0.159
AACATCTT	-0.179
AGGAAGCG	0.0598
CTTCGGAA	0.145
ACTTTCAC	-0.0972
CCCGATTA	0.16
ACCTCGTA	-0.0603
CACGGTCA	0.0187
TCTCGTAA	0.076
ATAGCGCC	0.303
CGACTGAG	-0.147

Series 3
Target: ABI1, truncated, D143A, DHFR fusion (Arabidopsis thaliana)
Technique: DHFR PCA, deep sequencing
Matrix: yeast
Setting: methotrexate growth selection, single substitutions
With: (+)-ABA 58 µM
Relative to: wild-type fitted maximum
Direction: higher = stronger binding
Parent: PYL1, truncated, DHFR fusion (Arabidopsis thaliana); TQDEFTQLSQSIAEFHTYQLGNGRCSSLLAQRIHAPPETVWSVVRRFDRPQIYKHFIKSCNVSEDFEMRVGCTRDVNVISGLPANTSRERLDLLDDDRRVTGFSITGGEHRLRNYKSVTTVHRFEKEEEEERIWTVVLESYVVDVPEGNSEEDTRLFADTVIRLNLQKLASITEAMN; partner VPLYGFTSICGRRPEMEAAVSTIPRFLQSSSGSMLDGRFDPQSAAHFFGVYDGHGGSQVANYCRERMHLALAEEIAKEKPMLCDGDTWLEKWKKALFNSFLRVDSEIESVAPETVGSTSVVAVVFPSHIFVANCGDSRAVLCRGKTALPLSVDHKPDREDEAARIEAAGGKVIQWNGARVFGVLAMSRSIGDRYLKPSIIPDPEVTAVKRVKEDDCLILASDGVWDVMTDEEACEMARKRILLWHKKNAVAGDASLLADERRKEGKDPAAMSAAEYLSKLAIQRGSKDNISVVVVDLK
Change	relative binding score
E130Q	93.6%
M68N	79.3%
T86E	61.9%
L156D	70.4%
Y53L	-9.72%
S63P	91.6%
A84P	3.6%
L91M	67.5%
P83N	19.9%
E139Y	80.7%
L20F	81.1%
P36S	86.6%
H55R	89.4%
Q2W	74.8%
V118C	89.1%
D159G	57.6%
P36F	54.7%
T135G	1.67%
T120R	-0.893%

Series 4
Target: JUND, bZIP domain (human)
Technique: DHFR protein complementation
Matrix: yeast
Setting: single substitutions, most at no-binding floor
Relative to: wild-type JUN-FOS pair
Direction: higher = stronger binding
Parent: JUN, bZIP domain (human); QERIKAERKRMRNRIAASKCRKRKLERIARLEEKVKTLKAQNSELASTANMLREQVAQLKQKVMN; partner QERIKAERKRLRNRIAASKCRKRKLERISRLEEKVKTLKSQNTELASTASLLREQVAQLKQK
Change	binding fitness [natural log]
S47L	-0.638
K36S	-0.864
Q41H	-0.985
K34H	-0.501
N42Q	-0.833
A40E	-0.562
A40G	-1.12
M51H	-0.65
E54S	-1
M51E	-0.573
M51I	-0.77
E54C	-1.19
R53A	-0.877
R30E	-0.411
M51Q	-0.542
A49L	-0.916
A57M	-0.888
T37E	-0.393
R30Q	-0.521
S47A	-0.443
R30Y	-0.642
K36M	-0.654
S43Q	-0.459
E33N	-0.875
R53K	-0.851

Series 5
Target: Sal-like protein 4, full length isoform A (SALL4, Homo sapiens, UniProt Q9UJQ4, residues 1-1053)
Sequence of UniProt Q9UJQ4 (whole entry, looked up): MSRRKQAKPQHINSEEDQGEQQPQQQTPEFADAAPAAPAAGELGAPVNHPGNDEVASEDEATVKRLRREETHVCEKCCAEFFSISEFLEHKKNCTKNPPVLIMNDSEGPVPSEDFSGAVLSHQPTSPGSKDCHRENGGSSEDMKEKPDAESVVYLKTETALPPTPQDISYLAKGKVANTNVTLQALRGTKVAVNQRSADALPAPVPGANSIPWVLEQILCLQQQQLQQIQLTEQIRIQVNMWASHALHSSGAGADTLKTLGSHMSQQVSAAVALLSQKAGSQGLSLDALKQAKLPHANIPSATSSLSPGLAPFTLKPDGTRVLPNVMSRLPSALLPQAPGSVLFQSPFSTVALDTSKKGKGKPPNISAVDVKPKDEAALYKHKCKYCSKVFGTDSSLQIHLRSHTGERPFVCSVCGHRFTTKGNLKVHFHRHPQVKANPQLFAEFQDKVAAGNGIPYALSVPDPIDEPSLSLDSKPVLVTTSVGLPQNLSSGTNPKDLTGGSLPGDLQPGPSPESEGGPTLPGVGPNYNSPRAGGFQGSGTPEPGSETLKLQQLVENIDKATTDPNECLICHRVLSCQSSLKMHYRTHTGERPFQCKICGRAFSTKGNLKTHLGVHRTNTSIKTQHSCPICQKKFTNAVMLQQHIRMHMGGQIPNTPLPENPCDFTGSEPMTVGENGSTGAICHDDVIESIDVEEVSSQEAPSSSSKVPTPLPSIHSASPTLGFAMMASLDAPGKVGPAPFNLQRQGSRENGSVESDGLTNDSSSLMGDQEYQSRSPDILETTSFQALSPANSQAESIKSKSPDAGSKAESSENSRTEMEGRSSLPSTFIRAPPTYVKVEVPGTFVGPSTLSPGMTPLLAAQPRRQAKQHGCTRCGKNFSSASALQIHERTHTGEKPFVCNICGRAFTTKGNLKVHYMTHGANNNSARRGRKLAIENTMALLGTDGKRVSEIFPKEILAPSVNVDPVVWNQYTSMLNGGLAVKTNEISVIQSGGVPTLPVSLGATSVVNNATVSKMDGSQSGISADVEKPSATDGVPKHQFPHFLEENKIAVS
Technique: universal PBM
Form: double-stranded DNA, one strand shown
Matrix: in vitro
Tested at: 600 nM
Setting: 8-mer, flanks averaged, mean of replicates
Direction: higher = stronger binding
Sequence	E-score
CATTTTAC	0.301
TCAGCACA	0.0677
AAGGGGCA	-0.224
ACTGCAGC	-0.0962
AATCGGGG	-0.14
CCTCCTGA	-0.173
GCCGTTCC	-0.146
GATGCCGC	-0.284
CGCGTACC	-0.268
GGTTGAGA	-0.123
ACAGTCAG	-0.0457
GATACAAC	0.0822
CTATAGCC	-0.0656
ACACTATC	0.161
CCCGTATA	0.0778
AGTCAGTG	0.0127

Series 6
Target: CCNB2, cyclin fold, Cln2 fusion (human)
Technique: yeast growth competition, sequencing
Matrix: yeast
Setting: weak parent motif
Relative to: not given
Direction: higher = stronger binding
Parent: SAMHD1 docking peptide (human); ASKSRVQLFKDDP; partner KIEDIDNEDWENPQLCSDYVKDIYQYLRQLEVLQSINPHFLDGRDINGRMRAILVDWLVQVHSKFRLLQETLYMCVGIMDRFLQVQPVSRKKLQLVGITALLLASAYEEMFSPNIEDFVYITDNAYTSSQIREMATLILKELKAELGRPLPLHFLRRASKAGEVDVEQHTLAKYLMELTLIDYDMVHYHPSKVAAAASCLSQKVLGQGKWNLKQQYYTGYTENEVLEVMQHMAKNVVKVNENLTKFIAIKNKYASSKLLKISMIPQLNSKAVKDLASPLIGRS
Change	normalised enrichment score
ASKSRVQLFTDDP [K10T]	-0.068
ASKSRVQLFNDDP [K10N]	0.0179
ASKSRVQLQKDDP [F9Q]	0.0403
ASPSRVQLFKDDP [K3P]	-0.599
ATKSRVQLFKDDP [S2T]	0.00724
ASKYRVQLFKDDP [S4Y]	0.421
ASKSRVQLCKDDP [F9C]	0.0894
ASKSRVQLFKHDP [D11H]	0.199
ASKSRVQLVKDDP [F9V]	0.742
ASKSRVQLFKDLP [D12L]	-0.103
ASWSRVQLFKDDP [K3W]	0.161
ASKSRVQLFKIDP [D11I]	-0.0438
ASTSRVQLFKDDP [K3T]	-0.161
ASKSRVGLFKDDP [Q7G]	0.287
ASKSFVQLFKDDP [R5F]	0.101
ASKDRVQLFKDDP [S4D]	0.0843
APKSRVQLFKDDP [S2P]	0.427
ADKSRVQLFKDDP [S2D]	0.00816
ASKSRVVLFKDDP [Q7V]	0.0468
ASKSSVQLFKDDP [R5S]	-0.579
ASKSRVFLFKDDP [Q7F]	0.145
ASKSRVWLFKDDP [Q7W]	0.204
ASKSRVQAFKDDP [L8A]	0.14
ASKSRVQLFEDDP [K10E]	-0.0156
ASKSLVQLFKDDP [R5L]	-0.203
